Assay results of several laboratories.
Every numbered part comes from another study and shows a few of its results, in no order. Substitutions count along the parent as printed.
Sequence of UniProt Q96RR4 (whole entry, looked up): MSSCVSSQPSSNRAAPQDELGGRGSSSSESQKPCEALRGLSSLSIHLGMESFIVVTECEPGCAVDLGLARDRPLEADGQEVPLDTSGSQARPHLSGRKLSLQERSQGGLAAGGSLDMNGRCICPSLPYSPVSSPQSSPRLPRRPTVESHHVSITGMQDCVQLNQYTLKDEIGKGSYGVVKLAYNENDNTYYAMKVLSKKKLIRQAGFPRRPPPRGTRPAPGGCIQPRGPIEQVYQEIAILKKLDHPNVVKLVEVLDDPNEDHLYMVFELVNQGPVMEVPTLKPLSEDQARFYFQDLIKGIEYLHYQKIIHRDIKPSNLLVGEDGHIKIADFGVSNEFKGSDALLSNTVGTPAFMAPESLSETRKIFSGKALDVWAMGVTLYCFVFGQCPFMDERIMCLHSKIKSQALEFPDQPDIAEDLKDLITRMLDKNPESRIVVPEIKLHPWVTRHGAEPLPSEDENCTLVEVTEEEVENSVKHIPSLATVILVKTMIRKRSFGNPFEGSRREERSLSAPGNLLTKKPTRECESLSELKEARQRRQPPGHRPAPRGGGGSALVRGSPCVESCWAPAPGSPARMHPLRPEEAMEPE
Sequence of UniProt Q9C5X0 (whole entry, looked up): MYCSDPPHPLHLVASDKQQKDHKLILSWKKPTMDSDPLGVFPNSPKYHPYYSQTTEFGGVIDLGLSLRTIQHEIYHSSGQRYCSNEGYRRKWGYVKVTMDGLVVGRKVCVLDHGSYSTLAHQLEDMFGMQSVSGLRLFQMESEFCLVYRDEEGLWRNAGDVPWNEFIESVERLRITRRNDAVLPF

Block 1
Target: CCND2, cyclin fold, Cln2 fusion (human)
Technique: yeast growth competition, sequencing
Sample: yeast
Setting: strong parent motif
Relative to: not given
Direction: higher = stronger binding
Starting sequence: viral docking peptide; YKVKRRLVFGADD; partner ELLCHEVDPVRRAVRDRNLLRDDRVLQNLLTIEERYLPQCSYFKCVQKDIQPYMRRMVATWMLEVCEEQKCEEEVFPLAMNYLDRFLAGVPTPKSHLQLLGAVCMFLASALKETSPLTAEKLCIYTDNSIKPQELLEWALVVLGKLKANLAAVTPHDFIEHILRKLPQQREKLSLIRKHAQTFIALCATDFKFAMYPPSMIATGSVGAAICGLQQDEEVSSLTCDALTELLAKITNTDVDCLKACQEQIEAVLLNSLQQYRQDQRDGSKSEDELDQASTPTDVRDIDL
| Variant | normalised enrichment score |
| --- | --- |
| F9D | 0.52 |
| K2T | 2.02 |
| R5I | 0.067 |
| L7N | 0.444 |
| V3R | 0.326 |
| A11G | 1.56 |
| K4H | 0.518 |
| A11I | 1.28 |
| K2R | 1.29 |
| R6H | 0.629 |
| R6M | 0.451 |
| K2E | 1.43 |
| L7Q | -0.147 |
| K4A | 1.91 |
| K4G | 0.898 |
| V3N | 0.224 |
| L7H | 0.0401 |
| L7F | 0.103 |
| K4D | 0.42 |
| L7D | 0.154 |
| D12S | 0.64 |
| D12A | 0.97 |
| K2I | 0.603 |
| V8G | -0.227 |
| F9R | -0.238 |

Block 2
Target: Sal-like protein 4, full length isoform B (SALL4, Homo sapiens, UniProt Q9UJQ4-2, residues 1-616)
Technique: universal PBM
Form: double-stranded DNA, one strand shown
Sample: in vitro
Concentration: not given
Setting: 8-mer, flanks averaged, mean of replicates
Direction: higher = stronger binding
| Oligonucleotide | E-score |
| --- | --- |
| CCCTTCAA | -0.0676 |
| CGCCGGAG | -0.239 |
| CTTAGACA | -0.0833 |
| CCCCGGAA | -0.274 |
| CGACCGGC | -0.284 |
| AAAACGAT | 0.17 |
| CTGACGTC | -0.0161 |
| CCCACCGA | -0.28 |

Block 3
Target: HLA class I histocompatibility antigen, A alpha chain, allele A*80:01 (Homo sapiens, UniProt P04439)
Read-out: peptide-MHC binding
Form: peptide
Concentration: concentration not given
| Sequence | binding |
| --- | --- |
| RTYSLLNRK | inactive |
| VRGGMVAPL | inactive |
| YITDYSNDI | inactive |
| TELPLAYER | inactive |

Block 4
Target: Interferon regulatory factor 5, full length, phosphomimetic (IRF5, Homo sapiens, UniProt Q13568-2, residues 1-514, K96S/S451D/S453D/S456D/S462D)
Technique: protein-binding microarray
Form: double-stranded DNA, one strand shown
Sample: in vitro
Concentration: 250 nM
Setting: 60-bp whole probe
With: salmon DNA 0.4 mg/ml
Relative to: random background probes
Direction: higher = stronger binding
Constant ends, left off below: GCCTAGCAC … GTCTTGATTCGCTTGACGCTGCTG
| Oligonucleotide | log fluorescence |
| --- | --- |
| CCAGTGCTTGCTCCCCTGCAGTGCTAG | -0.424 z-score |
| GCATCGTAAGCAAAAATGATGTGCTAG | 0.4 z-score |
| GACGATCTCAATCTCGAGACGTGCTAG | -0.137 z-score |
| GGAAGCTTCTTTTTTATTCTGTGCTAG | 0.657 z-score |
| TTAGGACTGGACACTGGGTCAGTGCTA | -0.635 z-score |
| TCATAAAACAACTTTCAAACTGTGCTA | 1.38 z-score |
| GACGATTCCAGTTTCGCGACGTGCTAG | 1.35 z-score |
| TTAGGACTGGGTTTCGGTGAGTGCTAG | 6.26 z-score |

Block 5
Target: Myc proto-oncogene protein, bHLH-zipper, MAX partner unstated (MYC, Homo sapiens, UniProt P01106, residues 368-449)
Sequence of UniProt P01106 (368-449, looked up): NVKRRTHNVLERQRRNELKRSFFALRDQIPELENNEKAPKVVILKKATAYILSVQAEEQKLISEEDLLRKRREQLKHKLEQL
Technique: protein-binding microarray
Form: double-stranded DNA, one strand shown
Sample: in vitro
Concentration: not given
Setting: k-mer, scored over probes, only values ≥0.25
Direction: higher = stronger binding
| Oligonucleotide | E-score |
| --- | --- |
| CCACACGG | 0.289 |
| CATGGACG | 0.301 |
| CCCCAACC | 0.339 |
| ACGAGGCA | 0.373 |
| CGTACACG | 0.4 |
| ACACACGA | 0.329 |
| CGCGCCAC | 0.257 |
| CACGCACC | 0.364 |

Single results of other studies
B1: IAA33 (Arabidopsis thaliana, UniProt Q9FKM7); chain MNSFEPQSQDSLQRRFHQDNSTTQQPRDTTTPFIPKPASKNHNNSNSSSGAAGRSFQGFGLNVEDDLVSSVVPPVTVVLEGRSICQRISLDKHGSYQSLASALRQMFVDGADSTDDLDLSNAIPGHLIAYEDMENDLLLAGDLTWKDFVRVAKRIRILPVKGNTRQVKRNE
| Molecule | target or system | assay | conditions | how to read | measurement | result |
| --- | --- | --- | --- | --- | --- | --- |
| CCn1cnc2c(Nc3cccc(Cl)c3)nc(N[C@H]3CCCC[C@H]3N)nc21 | CAMKK2 (Homo sapiens, UniProt Q96RR4) | enzyme activity, inhibitor | 0.5 µM | relative to: control | remaining activity | 86.1% |
| B1 (IAA33) | IAA34 (Arabidopsis thaliana, UniProt Q9C5X0) | two-hybrid | – | relative to: out of 4 tests, higher = firmer interaction | positive tests | 4 |

Some of these lines once more (block 1):
| Variant | normalised enrichment score |
| --- | --- |
| L7F | 0.103 |
| K4D | 0.42 |
| L7D | 0.154 |
| D12S | 0.64 |
| D12A | 0.97 |
| K2I | 0.603 |
| V8G | -0.227 |
